# Experimental data collected from several papers.
# A part holds a random share of what one study measured. Positions count from the first letter of the parent shown.

# Set 1
# Target: Ras GTPase-activating protein-binding protein 1, full length (G3BP1, Homo sapiens, UniProt Q13283)
# UniProt Q13283, sequence (whole entry, looked up): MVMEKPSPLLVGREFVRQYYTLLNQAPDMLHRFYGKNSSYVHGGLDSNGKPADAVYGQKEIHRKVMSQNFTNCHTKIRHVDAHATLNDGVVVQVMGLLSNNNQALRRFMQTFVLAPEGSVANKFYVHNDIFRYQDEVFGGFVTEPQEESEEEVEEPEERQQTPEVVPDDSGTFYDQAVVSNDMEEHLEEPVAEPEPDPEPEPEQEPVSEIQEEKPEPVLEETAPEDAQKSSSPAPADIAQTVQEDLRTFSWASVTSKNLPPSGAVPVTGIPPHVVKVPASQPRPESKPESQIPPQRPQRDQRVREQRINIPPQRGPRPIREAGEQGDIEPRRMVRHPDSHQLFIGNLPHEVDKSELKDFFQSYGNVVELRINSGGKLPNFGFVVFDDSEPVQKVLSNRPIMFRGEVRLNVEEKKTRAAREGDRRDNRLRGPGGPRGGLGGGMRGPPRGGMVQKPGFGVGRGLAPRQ
# Method: RNA Bind-n-Seq
# Form: RNA
# Medium: in vitro
# Concentration: 200 nM
# Notes: whole 134-nt RNA, ends assumed
# Added: 150 mM LiCl
# Baseline: input library
# Reading: higher = stronger binding
# Each molecule: 7-deaza-guanosine replaces G
# Shared flanks, not repeated: GGGAGUUCUACAGUCCGACGAUC … UGGAAUUCUCGGGUGUCAAGG
Sequence,log2 enrichment
UGGCCUGCACAUUCAGCUGCAUGAUGAAGUUCACUGUCAAGGACUGUGAUCCCACCACUGGGGAGACUGAUGACGAAGGCUAUGAGGAUG,-2.8
AGUCCUGUGCUACACAUCGUAUGUACCGAAUCGGAAAAAGGAAAAAAAGGAAAAAGGAAAGUAUUAUGUUACGCCGUUCGGAUCUGCACU,-1.43
UAUUCCAAUGUCUGUGGGAAUAAUUGACACAAGGACGAAUCCAAGCCAGUUAAAUGCGGUUGAAUUUCUGUGGGACCCAGCAAAACGCAC,0.0522
AAGUCCUGUGCUACACAUCGUAUGUACCGAAUCGGUUUUUUUGGAGGAAAAAAAGGAAAGUAUUAUGUUACGCCGUUCGGAUCUGCACUU,-1.18
AGUCCUGUGCUACACAUCGUAUGUACCGAAUCGGGAAAAAAAGGGAAAGGGAAAGGGAAAGUAUUAUGUUACGCCGUUCGGAUCUGCACU,-0.742
GUCCUGUGCUACACAUCGUAUGUACCGAAUCGGCCCCCGGGCCCCCGGGCCCCCGGGGAAAGUAUUAUGUUACGCCGUUCGGAUCUGCAC,-1.32
UAACUUUAGAGGCGGAUCUGAUGGAUAUGGCAGUGGACGUGGAUUUGGGGAUGGCUAUAAUGGGUAUGGAGGAGGACCUGGAGGUGGCAA,-0.0829
GCAGGAAGUAAAAACAAAUGGAAAUGCUUCGGAUAGUGGCAGGGGUGGGGGUUGCUAAGGAAAGGGUGGGAUGGGAAUGGGUAAAGAGUU,-0.338

# Set 2
# Target: CCNA1, cyclin fold, Cln2 fusion (human)
# Method: yeast growth competition, sequencing
# Medium: yeast
# Notes: weak parent motif
# Baseline: not given
# Reading: higher = stronger binding
# Parent: CDKN1A docking peptide (human); SKACRRLFGPVDS
Variant,normalised enrichment score
L7S,-0.44
K2M,0.865
A3T,0.576
R6V,0.19
P10S,0.936
C4Y,-0.163
R5K F8L,0.166
L7V,0.2
A3H,0.261
S1A,0.566
D12K,0.202
F8A,0.155
F8H,0.236
A3Y,-0.175
G9T,0.526
K2I,0.492
P10W,0.122
K2F,0.125
A3P,0.468
V11M,0.411
G9E,0.901
K2P,0.639
G9D,0.556
P10G,0.383
C4I,0.0564

# Set 3
# Target: ABI1, truncated, D143A, DHFR fusion (Arabidopsis thaliana)
# Method: DHFR PCA, deep sequencing
# Medium: yeast
# Notes: methotrexate growth selection, single substitutions
# Added: (+)-ABA 0.032 µM
# Baseline: wild-type fitted maximum
# Reading: higher = stronger binding
# Parent: PYL1, truncated, DHFR fusion (Arabidopsis thaliana); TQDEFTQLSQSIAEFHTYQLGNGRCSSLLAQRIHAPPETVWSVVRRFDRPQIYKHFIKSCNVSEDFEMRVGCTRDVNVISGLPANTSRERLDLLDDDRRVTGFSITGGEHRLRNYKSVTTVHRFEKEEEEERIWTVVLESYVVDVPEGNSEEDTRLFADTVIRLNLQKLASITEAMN; partner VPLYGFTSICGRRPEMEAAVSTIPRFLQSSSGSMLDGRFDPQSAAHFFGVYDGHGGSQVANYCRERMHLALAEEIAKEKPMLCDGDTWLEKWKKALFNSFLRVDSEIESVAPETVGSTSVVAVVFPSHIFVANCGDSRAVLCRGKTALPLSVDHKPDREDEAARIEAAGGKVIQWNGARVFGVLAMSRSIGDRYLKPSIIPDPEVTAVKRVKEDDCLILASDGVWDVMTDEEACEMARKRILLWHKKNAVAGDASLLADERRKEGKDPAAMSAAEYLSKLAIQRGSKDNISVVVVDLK
Variant,relative binding score
A35I,-6.44%
R111L,4.05%
S87Y,52.9%
R88I,36.9%
L8P,3.8%
D65T,4.68%
N149S,56.5%
L20E,31.7%
L28V,45.6%
N165F,-1.99%
I133Q,38.7%
G148H,1.03%
G148V,-5.22%
Q7F,21.7%
R24D,3.66%
I105M,6.26%

# Set 4
# Target: Sal-like protein 4, full length isoform A (SALL4, Homo sapiens, UniProt Q9UJQ4, residues 1-1053)
# UniProt Q9UJQ4, sequence (whole entry, looked up): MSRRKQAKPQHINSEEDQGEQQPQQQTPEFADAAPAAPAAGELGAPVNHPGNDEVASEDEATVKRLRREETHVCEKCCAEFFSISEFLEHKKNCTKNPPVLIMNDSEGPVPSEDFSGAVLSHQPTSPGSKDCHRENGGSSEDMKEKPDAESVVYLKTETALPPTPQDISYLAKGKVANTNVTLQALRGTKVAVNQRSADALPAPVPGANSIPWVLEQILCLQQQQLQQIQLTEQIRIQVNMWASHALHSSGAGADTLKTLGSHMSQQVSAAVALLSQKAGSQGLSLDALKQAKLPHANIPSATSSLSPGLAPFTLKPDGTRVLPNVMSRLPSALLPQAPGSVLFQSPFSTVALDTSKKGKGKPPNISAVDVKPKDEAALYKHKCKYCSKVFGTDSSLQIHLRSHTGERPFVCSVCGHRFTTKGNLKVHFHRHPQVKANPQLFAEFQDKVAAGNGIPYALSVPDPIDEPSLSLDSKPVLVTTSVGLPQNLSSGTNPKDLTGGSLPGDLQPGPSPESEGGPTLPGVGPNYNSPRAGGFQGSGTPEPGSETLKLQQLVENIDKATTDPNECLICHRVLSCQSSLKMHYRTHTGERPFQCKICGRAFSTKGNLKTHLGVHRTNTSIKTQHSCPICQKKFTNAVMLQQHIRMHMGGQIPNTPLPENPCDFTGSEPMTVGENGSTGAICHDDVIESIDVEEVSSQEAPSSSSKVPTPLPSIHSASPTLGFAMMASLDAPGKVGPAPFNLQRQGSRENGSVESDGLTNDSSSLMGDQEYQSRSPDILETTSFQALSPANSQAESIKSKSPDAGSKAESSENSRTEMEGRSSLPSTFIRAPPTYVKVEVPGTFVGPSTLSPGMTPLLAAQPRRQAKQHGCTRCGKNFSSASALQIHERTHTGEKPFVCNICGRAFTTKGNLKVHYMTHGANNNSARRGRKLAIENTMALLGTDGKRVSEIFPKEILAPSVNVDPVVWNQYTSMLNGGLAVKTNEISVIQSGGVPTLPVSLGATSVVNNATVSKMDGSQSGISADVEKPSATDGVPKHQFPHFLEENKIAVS
# Method: universal PBM
# Form: double-stranded DNA, one strand shown
# Medium: in vitro
# Concentration: 600 nM
# Notes: 8-mer, flanks averaged, mean of replicates
# Reading: higher = stronger binding
Sequence,E-score
CCGACCGA,-0.333
AATGGTGT,0.18
AACCGACT,-0.19
ACCACTCC,-0.213
GATTCTGC,-0.0714
CAGCTTCA,0.109
ATTGTGGC,0.0133
TGGCATAA,0.299
CACTGTAC,-0.135
AGTTACCC,-0.0719
GCAAAAGC,0.117
GGATATAA,0.264
CTTACAAC,0.152
TGCTTAAA,0.218
GGCATCTA,-0.015
AACTTACG,0.127
CATCCCAC,-0.162
AAGAGTGT,0.0364
ACTTCTCA,0.09
AAAAGAGC,0.0485
GCGAACCA,-0.0237
ACTAGGAT,0.0572
TCAGCTCA,-0.116

# Mixed results
Molecule,target,test,test system,conditions,how to read,endpoint,result
"PhoQ, residues 284 288 289 292 302 303 SSYNSA","PhoP, residues 12 14 15 18 19 GHCSL (Escherichia coli, UniProt P23836)","Sort-seq, refers to: YFP reporter",E. coli,"PhoQ-PhoP variant library, added: 10 µM Mg2+","baseline: high Mg2+ state, higher = stronger signaling",fold induction,12

# Some of these lines once more (set 3):
Variant,relative binding score
R24D,3.66%
L20E,31.7%
D65T,4.68%
I105M,6.26%
S87Y,52.9%
N165F,-1.99%
L8P,3.8%
